Measurements collected from several papers.
Numbered parts are unrelated; each lists some results of a single study. Changes are numbered by the printed parent chain.

Study 1
Target: CCNB1, cyclin fold, Cln2 fusion (human)
Technique: yeast growth competition, sequencing
Medium: yeast
Setting: weak parent motif
Relative to: not given
Direction: higher = stronger binding
Starting sequence: GMNC docking peptide (human); KNAKRNLSSEFAN
Variant	normalised enrichment score
E10T	0.349
F11Y	0.223
A12H	0.0129
A12S	0.0753
A3Y	0.226
E10K	0.0641
F11G	0.322
N6T	0.275
L7F	0.427
S9Y	0.236

Study 2
Target: Phosphate system positive regulatory protein PHO4, full length, GST-tagged (PHO4, Saccharomyces cerevisiae, UniProt P07270, residues 1-312)
Technique: competition protein-binding microarray
Molecule type: double-stranded DNA, one strand shown
Medium: in vitro
Concentration: 2 µM
Setting: whole 60-bp probe, lowest competitor level
With: Cbf1 competitor, 0.05 µM
Direction: higher = stronger binding
Shared flanks, not repeated: … GTCTTGATTCGCTTGACGCTGCTG
Residues (chain): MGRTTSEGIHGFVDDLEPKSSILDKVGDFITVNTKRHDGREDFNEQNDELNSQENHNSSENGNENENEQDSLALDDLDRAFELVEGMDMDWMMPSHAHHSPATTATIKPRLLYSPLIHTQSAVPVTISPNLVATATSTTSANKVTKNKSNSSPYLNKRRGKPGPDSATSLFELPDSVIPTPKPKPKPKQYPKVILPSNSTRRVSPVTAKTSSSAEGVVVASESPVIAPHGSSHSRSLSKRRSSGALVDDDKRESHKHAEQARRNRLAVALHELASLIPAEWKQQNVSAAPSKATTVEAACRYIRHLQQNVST
Strand	fluorescence intensity
TTTGTTGCAACTATCCGCGTGGCCGATTGAGAGTCC	10400 a.u.
CGTCCTAGTGATTTTCACGTGTACTCCATGAGGAAG	13200 a.u.
CTTCTGTAAATTTGCTGCGTGGGTGGACGCGCCCCG	7790 a.u.
GTCCGAGAACCCACCCTCGTGTGGAACTTCTTGAGC	10200 a.u.
TATTCCATCTTTTCCCTCGTGTTGACAATAGAGTCA	11300 a.u.
CTTCTGTAAATTTGAACCGTGGGTGGACGCGCCCCG	7110 a.u.
GACGCGCGACCCGCGCGCGTGCCACTGCAAGCTCTG	11300 a.u.
GTCTTGTCTCATTGTATAGTGGGTGTCCCCACTTCA	4280 a.u.
CGGGGTTAAGTTTGTCACAACACTTGCTTGCAGCAG	3720 a.u.
TCTTAAAACGAGGTTCACGTGTAACCTTGGTTGATG	15200 a.u.

Study 3
Target: Interferon regulatory factor 7, full length, phosphomimetic (IRF7, Homo sapiens, UniProt Q92985, residues 1-503, S471D/S472D/S475D/S476D/S477D/S483D/S484D/S487D)
Technique: protein-binding microarray
Molecule type: double-stranded DNA, one strand shown
Medium: in vitro
Concentration: 2200 nM top
Setting: 60-bp whole probe
With: salmon DNA 0.4 mg/ml
Relative to: random background probes
Direction: higher = stronger binding
Shared flanks, not repeated: GCCTAGCAC … GTCTTGATTCGCTTGACGCTGCTG
Target sequence (chain): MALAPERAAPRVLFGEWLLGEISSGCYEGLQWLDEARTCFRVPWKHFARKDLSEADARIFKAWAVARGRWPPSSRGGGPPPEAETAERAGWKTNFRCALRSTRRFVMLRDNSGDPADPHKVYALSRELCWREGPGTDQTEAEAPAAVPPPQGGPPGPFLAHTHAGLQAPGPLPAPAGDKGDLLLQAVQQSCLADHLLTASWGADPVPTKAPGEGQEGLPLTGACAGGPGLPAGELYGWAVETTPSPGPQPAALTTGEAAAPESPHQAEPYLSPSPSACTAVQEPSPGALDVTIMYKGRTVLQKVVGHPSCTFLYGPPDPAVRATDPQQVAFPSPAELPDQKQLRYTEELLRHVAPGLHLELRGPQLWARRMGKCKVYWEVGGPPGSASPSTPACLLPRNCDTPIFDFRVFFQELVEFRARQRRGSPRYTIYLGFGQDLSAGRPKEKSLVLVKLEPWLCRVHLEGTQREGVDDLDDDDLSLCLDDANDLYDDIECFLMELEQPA
Strand	fitted relative affinity
TTAGATTTCGGGTATCGACTAGTGCTA	2.73 z-score
AACGGTATCCTTATCCTGACGTGCTAG	0.883 z-score
GACGGTCTCCTTTTCCCGACGTGCTAG	1.85 z-score
CCAGACTTGATTTTGGTCTTGTGCTAG	0.916 z-score
TCAAATCCCACATTTGATACTGTGCTA	0.779 z-score
TGGACTGTGTGTTTGAGTCTGTGCTAG	0.653 z-score
ATAGGTTCCCTTTTCCTTTAGTGCTAG	3.29 z-score
GACCGTATCCTTTTCCTGACGTGCTAG	1.89 z-score
ACTTTTTTCTGATTGAATCTGTGCTAG	3.36 z-score

Other studies, line by line
Substance	target	test	system	setting	how to read	quantity	result
PhoQ, residues 284 288 289 292 302 303 SSTMSV	PhoP, residues 12 14 15 18 19 HLGGL (Escherichia coli, UniProt P23836)	Sort-seq, item: YFP reporter	E. coli	PhoQ-PhoP variant library, with: 10 µM Mg2+	relative to: high Mg2+ state, higher = stronger signaling	fold induction	1.13

Repeated from above (study 3):
Strand	fitted relative affinity
GACGGTCTCCTTTTCCCGACGTGCTAG	1.85 z-score
CCAGACTTGATTTTGGTCTTGTGCTAG	0.916 z-score
TCAAATCCCACATTTGATACTGTGCTA	0.779 z-score
